Results of several laboratories.
Protocols differ between the studies behind these lines. “And” joins repeats or separate records; there may be more than shown. ± gives the spread as reported.
HTR1E: 5-hydroxytryptamine receptor 1E (HTR1E, Homo sapiens, UniProt P28566)
Sequence of UniProt P28566 (whole entry, looked up): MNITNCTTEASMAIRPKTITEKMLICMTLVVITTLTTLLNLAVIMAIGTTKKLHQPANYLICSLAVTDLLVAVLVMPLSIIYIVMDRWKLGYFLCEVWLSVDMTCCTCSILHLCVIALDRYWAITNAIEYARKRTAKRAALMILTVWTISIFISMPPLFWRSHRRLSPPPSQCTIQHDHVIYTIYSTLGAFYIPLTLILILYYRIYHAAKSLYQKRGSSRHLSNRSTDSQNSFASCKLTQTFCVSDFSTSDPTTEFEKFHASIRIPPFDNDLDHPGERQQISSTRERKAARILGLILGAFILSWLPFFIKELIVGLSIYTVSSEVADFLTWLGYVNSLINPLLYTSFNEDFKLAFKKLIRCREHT
P4HB: Protein disulfide-isomerase (P4HB, Homo sapiens, UniProt P07237)
Sequence of UniProt P07237 (whole entry, looked up): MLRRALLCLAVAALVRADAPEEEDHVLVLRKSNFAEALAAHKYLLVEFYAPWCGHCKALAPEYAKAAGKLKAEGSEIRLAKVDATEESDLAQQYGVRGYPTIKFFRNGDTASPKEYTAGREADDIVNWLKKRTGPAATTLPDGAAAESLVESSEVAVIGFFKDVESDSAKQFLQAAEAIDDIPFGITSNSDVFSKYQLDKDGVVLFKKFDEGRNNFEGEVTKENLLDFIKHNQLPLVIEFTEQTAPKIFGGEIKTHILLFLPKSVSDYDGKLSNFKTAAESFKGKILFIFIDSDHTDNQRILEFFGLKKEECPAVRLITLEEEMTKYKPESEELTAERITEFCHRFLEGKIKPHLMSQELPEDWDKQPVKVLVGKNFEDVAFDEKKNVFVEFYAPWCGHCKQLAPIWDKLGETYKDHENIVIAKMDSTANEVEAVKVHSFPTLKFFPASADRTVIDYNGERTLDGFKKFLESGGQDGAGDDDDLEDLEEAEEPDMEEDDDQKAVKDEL
Palmitoyl-protein thioesterase 1: Palmitoyl-protein thioesterase 1 (Homo sapiens, UniProt P50897)
Sequence of UniProt P50897 (whole entry, looked up): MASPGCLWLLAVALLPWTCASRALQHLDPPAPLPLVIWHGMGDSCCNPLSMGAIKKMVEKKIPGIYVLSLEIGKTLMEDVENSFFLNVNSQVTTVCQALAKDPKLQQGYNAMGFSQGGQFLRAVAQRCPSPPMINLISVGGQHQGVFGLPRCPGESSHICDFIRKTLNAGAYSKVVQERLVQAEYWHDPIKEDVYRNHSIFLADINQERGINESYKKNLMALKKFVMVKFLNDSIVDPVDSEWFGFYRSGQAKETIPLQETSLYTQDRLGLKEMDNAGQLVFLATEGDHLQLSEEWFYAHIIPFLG
Luciferin 4-monooxygenase: Luciferin 4-monooxygenase (Photinus pyralis, UniProt P08659)
Sequence of UniProt P08659 (whole entry, looked up): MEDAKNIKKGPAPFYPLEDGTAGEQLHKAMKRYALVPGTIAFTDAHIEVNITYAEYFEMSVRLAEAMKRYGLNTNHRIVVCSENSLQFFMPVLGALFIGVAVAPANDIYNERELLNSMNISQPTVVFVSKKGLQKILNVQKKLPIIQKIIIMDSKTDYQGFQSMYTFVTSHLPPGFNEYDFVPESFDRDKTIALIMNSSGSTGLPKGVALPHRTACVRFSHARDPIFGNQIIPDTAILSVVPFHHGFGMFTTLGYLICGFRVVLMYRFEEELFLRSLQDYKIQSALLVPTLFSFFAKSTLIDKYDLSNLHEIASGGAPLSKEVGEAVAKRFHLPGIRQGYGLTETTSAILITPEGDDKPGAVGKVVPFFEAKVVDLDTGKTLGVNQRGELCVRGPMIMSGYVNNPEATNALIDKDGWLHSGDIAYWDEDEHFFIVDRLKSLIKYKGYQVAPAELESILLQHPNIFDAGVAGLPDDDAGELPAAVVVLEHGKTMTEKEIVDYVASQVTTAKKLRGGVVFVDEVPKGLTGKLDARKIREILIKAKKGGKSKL
DRD1: D(1A) dopamine receptor (DRD1, Homo sapiens, UniProt P21728)
Sequence of UniProt P21728 (whole entry, looked up): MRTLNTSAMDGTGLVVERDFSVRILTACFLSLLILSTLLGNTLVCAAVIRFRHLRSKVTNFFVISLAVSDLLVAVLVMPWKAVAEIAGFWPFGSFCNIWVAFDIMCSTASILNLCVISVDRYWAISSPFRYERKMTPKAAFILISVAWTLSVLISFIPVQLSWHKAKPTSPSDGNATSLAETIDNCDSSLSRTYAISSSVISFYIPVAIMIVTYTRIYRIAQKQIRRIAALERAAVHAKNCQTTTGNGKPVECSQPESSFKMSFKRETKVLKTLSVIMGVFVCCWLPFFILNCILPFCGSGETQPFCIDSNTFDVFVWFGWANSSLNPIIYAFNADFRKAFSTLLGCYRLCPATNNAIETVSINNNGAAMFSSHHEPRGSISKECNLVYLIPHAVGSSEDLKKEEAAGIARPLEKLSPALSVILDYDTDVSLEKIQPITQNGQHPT
Sequence of UniProt Q8IWT6 (whole entry, unmodified, looked up): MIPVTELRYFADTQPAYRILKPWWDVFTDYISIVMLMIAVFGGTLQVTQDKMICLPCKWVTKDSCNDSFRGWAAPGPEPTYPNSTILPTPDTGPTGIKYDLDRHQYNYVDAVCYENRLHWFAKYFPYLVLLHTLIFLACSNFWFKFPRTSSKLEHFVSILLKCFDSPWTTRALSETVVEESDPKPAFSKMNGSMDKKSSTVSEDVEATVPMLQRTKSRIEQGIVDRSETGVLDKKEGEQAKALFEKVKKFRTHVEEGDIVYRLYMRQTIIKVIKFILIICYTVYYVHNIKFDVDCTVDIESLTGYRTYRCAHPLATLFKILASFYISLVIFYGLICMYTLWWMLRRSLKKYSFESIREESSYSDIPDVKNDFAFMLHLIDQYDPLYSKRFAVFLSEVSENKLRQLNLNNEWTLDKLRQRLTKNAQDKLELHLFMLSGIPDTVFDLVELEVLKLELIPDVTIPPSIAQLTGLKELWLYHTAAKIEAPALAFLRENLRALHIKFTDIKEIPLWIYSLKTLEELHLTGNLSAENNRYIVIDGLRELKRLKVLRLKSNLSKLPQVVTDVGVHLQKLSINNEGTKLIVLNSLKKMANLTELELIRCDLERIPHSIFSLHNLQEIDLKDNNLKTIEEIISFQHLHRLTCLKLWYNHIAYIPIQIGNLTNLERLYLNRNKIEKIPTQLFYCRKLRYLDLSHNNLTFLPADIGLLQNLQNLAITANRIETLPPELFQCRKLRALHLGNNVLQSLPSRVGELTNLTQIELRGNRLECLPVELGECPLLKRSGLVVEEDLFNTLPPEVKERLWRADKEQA
Sequence of UniProt P04775 (whole entry, looked up): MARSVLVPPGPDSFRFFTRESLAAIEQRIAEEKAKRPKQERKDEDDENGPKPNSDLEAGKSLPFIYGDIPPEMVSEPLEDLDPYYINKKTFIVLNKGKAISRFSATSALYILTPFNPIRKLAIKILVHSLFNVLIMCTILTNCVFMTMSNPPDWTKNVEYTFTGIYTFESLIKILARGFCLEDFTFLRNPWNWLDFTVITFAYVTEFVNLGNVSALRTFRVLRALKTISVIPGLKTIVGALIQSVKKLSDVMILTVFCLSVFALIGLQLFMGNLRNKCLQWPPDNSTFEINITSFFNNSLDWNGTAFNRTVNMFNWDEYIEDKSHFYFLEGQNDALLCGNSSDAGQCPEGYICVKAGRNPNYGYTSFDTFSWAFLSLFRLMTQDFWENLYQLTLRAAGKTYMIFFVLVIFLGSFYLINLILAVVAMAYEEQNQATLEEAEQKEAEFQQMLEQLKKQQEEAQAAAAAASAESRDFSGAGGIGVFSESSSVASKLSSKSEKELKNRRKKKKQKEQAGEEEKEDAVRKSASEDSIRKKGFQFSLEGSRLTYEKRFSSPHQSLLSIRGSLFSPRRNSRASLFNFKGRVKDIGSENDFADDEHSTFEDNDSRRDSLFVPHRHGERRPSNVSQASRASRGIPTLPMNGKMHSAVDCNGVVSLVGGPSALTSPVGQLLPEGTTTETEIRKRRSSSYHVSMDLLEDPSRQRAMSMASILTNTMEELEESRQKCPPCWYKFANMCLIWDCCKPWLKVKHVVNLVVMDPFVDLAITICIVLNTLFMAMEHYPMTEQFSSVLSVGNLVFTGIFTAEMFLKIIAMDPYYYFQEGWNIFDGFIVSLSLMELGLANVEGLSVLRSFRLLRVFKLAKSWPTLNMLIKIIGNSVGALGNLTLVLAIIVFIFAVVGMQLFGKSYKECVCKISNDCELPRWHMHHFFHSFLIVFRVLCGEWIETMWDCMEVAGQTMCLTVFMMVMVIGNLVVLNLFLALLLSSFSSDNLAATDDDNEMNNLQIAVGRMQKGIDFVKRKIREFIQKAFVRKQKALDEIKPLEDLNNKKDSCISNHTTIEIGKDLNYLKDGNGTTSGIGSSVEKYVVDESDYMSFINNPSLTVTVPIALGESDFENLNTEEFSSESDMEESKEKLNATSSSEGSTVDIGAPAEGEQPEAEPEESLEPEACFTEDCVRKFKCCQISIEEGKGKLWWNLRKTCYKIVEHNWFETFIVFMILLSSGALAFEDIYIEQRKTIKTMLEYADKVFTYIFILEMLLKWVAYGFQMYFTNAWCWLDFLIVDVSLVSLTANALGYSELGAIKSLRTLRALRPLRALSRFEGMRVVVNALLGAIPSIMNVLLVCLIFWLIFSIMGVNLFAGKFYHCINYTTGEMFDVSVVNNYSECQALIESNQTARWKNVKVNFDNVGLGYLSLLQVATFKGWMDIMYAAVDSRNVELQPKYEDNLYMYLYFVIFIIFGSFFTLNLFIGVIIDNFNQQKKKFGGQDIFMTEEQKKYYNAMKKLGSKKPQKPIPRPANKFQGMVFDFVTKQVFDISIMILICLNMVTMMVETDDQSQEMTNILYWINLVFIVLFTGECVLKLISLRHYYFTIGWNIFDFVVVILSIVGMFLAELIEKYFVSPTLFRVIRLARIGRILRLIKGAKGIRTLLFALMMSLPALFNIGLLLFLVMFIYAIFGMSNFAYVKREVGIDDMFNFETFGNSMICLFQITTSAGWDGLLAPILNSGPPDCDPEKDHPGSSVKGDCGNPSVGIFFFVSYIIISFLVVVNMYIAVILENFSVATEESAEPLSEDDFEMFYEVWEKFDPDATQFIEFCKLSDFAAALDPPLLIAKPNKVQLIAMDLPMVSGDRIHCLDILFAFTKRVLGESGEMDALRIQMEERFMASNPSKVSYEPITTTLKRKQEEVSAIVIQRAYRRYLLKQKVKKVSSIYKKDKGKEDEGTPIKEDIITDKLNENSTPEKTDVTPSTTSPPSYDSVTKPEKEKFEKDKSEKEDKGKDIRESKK

`NS(=O)(=O)c1ccc(CNc2nc(Nc3cccc(NC(=O)N4CCCC4)c3)ncc2Br)cc1` — result for “number of kinases inhibited”: 4 (16-kinase panel; radiometric; 1 µM, ATP at Km; below 10% of control).
`COc1ccc(F)cc1C(=O)NCc1ccc(-c2nn([C@@H](C)C(F)(F)F)c(N)c2C(N)=O)cc1` gave an inhibition of 13.7% (OXSR1 (Homo sapiens, UniProt O95747); target engagement, competitive chemoproteomics; human PBMCs; 1 µM).
For `CCS(=O)(=O)c1nc(S(=O)(=O)c2ccccc2Cl)c(N2CCN(C)C(=O)[C@H]2C)s1`, the inhibition was 10.7% (HTR1E; 10 µM).
`Cc1ccc(N(O)N=Nc2ccc(S(=O)(=O)Nc3cc(C)on3)cc2)cc1` has an inhibition of 42.5 ± 0.29% (α-glucosidase, rat intestine; enzyme activity; 180 µg/mL, together with: 4-nitrophenyl α-D-glucopyranoside).
`O=C(OC[C@H]1O[C@@H](OC(=O)c2cc(O)c(O)c(O)c2)[C@H](OC(=O)c2cc(O)c(O)c(O)c2)[C@@H](OC(=O)c2cc(O)c(O)c(O)c2)[C@@H]1OC(=O)c1cc(O)c(O)c(O)c1)c1cc(O)c(O)c(O)c1`: inhibition “inhibited” (P4HB; di-eosin-GSSG reductase activity; 20 µM, 15 min).
`CN(O)N=Nc1ccc(S(=O)(=O)Nc2nccs2)cc1` has an inhibition of 10 ± 0.041% (α-glucosidase, rat intestine; enzyme activity; 20 µg/mL, together with: 4-nitrophenyl α-D-glucopyranoside).
With `C[n+]1c2cc(N)ccc2cc2ccc(N)cc21.[Cl-]` the inhibition was 70% (Palmitoyl-protein thioesterase 1; Spectrum Collection screen; concentration not given, together with: substrate 20 µM).
`CCCN(O)N=Nc1ccc(S(=O)(=O)Nc2cc(C)on2)cc1` has an inhibition of 52.5 ± 0.29% (α-glucosidase, rat intestine; enzyme activity; 240 µg/mL, together with: 4-nitrophenyl α-D-glucopyranoside).
The inhibition of `CSCC(=O)N1CCOC(Cc2cccc3ccccc23)C1` (centres unmarked) is reported as 58.9% (Luciferin 4-monooxygenase; luciferase luminescence, inhibitor; cell-free; 50 µM, counter-screen).
`c1cncc(OC[C@H]2CN(CCN3CCc4ccccc43)CCO2)c1` has an inhibition of -9% (HTR1E; radioligand binding; concentration not given, together with: [3H]5-HT).
`CN(Cc1ccccc1Cl)[C@@H]1c2ccccc2C2(CCNCC2)[C@H]1O` has an inhibition of 4.58% (Luciferin 4-monooxygenase; luciferase luminescence, inhibitor; cell-free; 50 µM, counter-screen).
`c1ccc(OC[C@@H]2CN(CCN3CCc4ccccc43)CCO2)cc1` gave an inhibition of 83% (DRD1; radioligand binding; concentration not given, together with: [3H]SCH23390).
`CCCCC1C(=O)N(c2ccccc2)N(c2ccccc2)C1=O` has an inhibition of 90% (cyclooxygenase, rabbit; distal colon mucosa microsomes; 10 µM).
`Cc1ccc(S(=O)(=O)Nc2ccc(C)cc2NS(=O)(=O)c2cccc(C(F)(F)F)c2)cc1`: inhibition “inhibited” (Protein lin-28 homolog A (Mus musculus, UniProt Q8K3Y3); RNA binding, inhibitor, EMSA; concentration not given).
For `Cc1cccc(N(O)N=Nc2ccc(S(=O)(=O)Nc3onc(C)c3C)cc2)c1`, the inhibition was 52.5 ± 0.09% (α-glucosidase, rat intestine; enzyme activity; 300 µg/mL, together with: 4-nitrophenyl α-D-glucopyranoside).
`COc1ccc(S(=O)(=O)N(CC(=O)O)C(=O)c2ccc(C(=O)N(CC(=O)O)S(=O)(=O)c3ccc(OC)cc3)c3ccccc23)cc1`: inhibition “no inhibition” (Kelch-like ECH-associated protein 1, Kelch domain (KEAP1, Homo sapiens, UniProt Q14145); binding, fluorescence polarization competition; 50 µM).
The inhibition of `OCCCN1CC[C@@H]2C[C@H]1c1cc(-c3ccc(C(F)(F)F)cc3)ccc12` is reported as < 50% (OPRD1 (Homo sapiens, UniProt P41143); radioligand binding, PDSP competition binding; 10 µM).
`Nc1ncnc2[nH]cnc12` has an inhibition of 77% (Gelsolin, N184K peptide (GSN, Homo sapiens, UniProt P06396); amyloid aggregation, ThT fluorescence; 100 µM, 12 h, 37 °C, cpd to peptide 1:1 molar).
For `O=C(O)/C=C/C=C/c1ccccc1`, the inhibition was 20.1% (Luciferin 4-monooxygenase; luciferase luminescence, inhibitor; cell-free; 50 µM, counter-screen).
Under inhibition, `NNc1ccc2ccccc2c1` is recorded as “inhibited” (Cytochrome b5 type B (CYB5B, Homo sapiens, UniProt O43169); MS-based ABPP-SILAC; HEK-293T lysate; 1 µM).
Under inhibition, `COc1cc2c(cc1OC)/C(=C/CCCCCCOCc1ccccc1)C=C2C(F)(F)F` is recorded as “no effect” (P4HB; enzyme activity, inhibitor, insulin reduction; concentration not given, biochemical).
The inhibition of `CCc1nc2cc(-c3noc(-c4ccccc4C)n3)ccc2o1` is reported as 85.7% (Luciferin 4-monooxygenase; luciferase luminescence, inhibitor; cell-free; 50 µM, counter-screen).
The inhibition of `CCN(O)N=Nc1ccc(S(=O)(=O)Nc2cc(C)on2)cc1` is reported as 60 ± 0.041% (α-glucosidase, rat intestine; enzyme activity; 180 µg/mL, together with: 4-nitrophenyl α-D-glucopyranoside).
With `NC/C(=C\F)COc1cccc(Cn2c(=S)[nH]c(=O)c3[nH]cnc32)c1` the inhibition was < 50% (rat kainate receptor; radioligand binding; 10 µM).
For `NC[C@H]1O[C@H](O[C@H]2[C@H](O)[C@@H](O[C@H]3O[C@H](CO)[C@@H](O)[C@H](N)[C@H]3O)[C@H](N)C[C@@H]2N)[C@H](O)[C@@H](O)[C@@H]1O`, the inhibition was 6.33% (THP-1; pyroptotic LDH release; 2 µM, 40 min, together with: LPS then nigericin).
For `CC[C@@H]1[C@H](F)C(=O)N[C@@H]1COc1nccc2cc(C(N)=O)c(OC)cc12`, the inhibition was 7.3% (IKBKE (Homo sapiens, UniProt Q14164); ATP-site probe binding, ActivX profiling; THP-1 cell lysate; 0.04 mM, Lys1 site).
`Cc1cc(C)n(C)n1` has an inhibition of 14.7% (THP-1; pyroptotic LDH release; 2 µM, 40 min, together with: LPS then nigericin).
With `CC/C(=N\NC(=O)NCc1cccc(O)c1)c1ccc(O)c(C)c1O` the inhibition was -2.8% (MAP3K2 (Homo sapiens, UniProt Q9Y2U5); kinase activity; 0.1 µM).
The inhibition of `Cc1ccc(C(=O)Nc2ccc3ccccc3c2)o1` is reported as 4.31% (Scn2a (Rattus norvegicus, UniProt P04775); ion current, whole-cell patch-clamp; 10 µM, rNav1.2).
For `COc1ccc2c(c1)CN(CCCN1CCN(c3ccccc3OC)CC1)C2=O`, the inhibition was 3.5% (HTR1E; radioligand binding; concentration not given, together with: [3H]5-HT).
With `COc1cc(C(=O)NS(=O)(=O)c2ccccc2C)ccc1Cc1cn(C)c2ccc(NC(=O)OC3CCCC3)cc12` the inhibition was 1.16% and -1.8% and 4.83% and -1.1% and 5.3% (Volume-regulated anion channel subunit LRRC8C, part LRRC8A IL1 chimera (LRRC8C, Homo sapiens, UniProt Q8TDW0, C43G/S11C); ion current, inhibitor, whole-cell patch clamp; HCT LRRC8-/- cells; 1 µM, +100 mV).
With `Cc1ncc([N+](=O)[O-])n1C` the inhibition was 65.4% (Palmitoyl-protein thioesterase 1; Spectrum Collection screen; concentration not given, together with: substrate 20 µM).
The inhibition of `Clc1cncc(OC[C@H]2CN(CCN3CCc4ccccc43)CCO2)c1` is reported as -12.3% (HTR1E; radioligand binding; concentration not given, together with: [3H]5-HT).
The inhibition of `CCCc1nn(C)c2c(=O)[nH]c(-c3cc(S(=O)(=O)N4CCN(C)CC4)ccc3OCC)nc12` is reported as 61.2% (Palmitoyl-protein thioesterase 1; Spectrum Collection screen; concentration not given, together with: substrate 20 µM).
`O=C(CN1CCO[C@H](COc2cccc(Cl)c2)C1)N1CCc2ccccc21` gave an inhibition of 43.2% (DRD1; radioligand binding; concentration not given, together with: [3H]SCH23390).
With `Cc1ncc2c(c1-c1noc(-c3cccc(N4CCOCC4)c3)n1)CCNC2` the inhibition was 9.81% (Luciferin 4-monooxygenase; luciferase luminescence, inhibitor; cell-free; 50 µM, counter-screen).
For `O=C(Nc1cccc2c(=O)cc(-c3nnn[nH]3)oc12)c1ccc(OCCCCc2ccccc2)cc1`, the inhibition was 15.7% and 26.7% and 0.528% and 75.3% and 28.9% and 23.4% (LRRC8A/LRRC8C (Homo sapiens, UniProt Q8IWT6+Q8TDW0, Y124F/Y126F); ion current, whole-cell patch clamp; HCT LRRC8-/- cells; 10 µM, +100 mV, Y124F/Y126F heteromers).
Under inhibition, `Cc1cc(OC(C)C)ccc1C(=O)C(C)(C)NC(=O)c1sccc1C` is recorded as “no inhibition” (NADH-cytochrome c oxidoreductase (complex I-III), Botrytis cinerea; mitochondrial fraction; concentration not given).
The inhibition of `O=C(CN1CCO[C@H](COc2cccnc2)C1)N1CCc2ccccc21` is reported as -4.4% (HTR1E; radioligand binding; concentration not given, together with: [3H]5-HT).
With `Cc1cc(NS(=O)(=O)c2ccc(N=NN(O)c3ccccc3)cc2)no1` the inhibition was 5 ± 0.59% (α-glucosidase, rat intestine; enzyme activity; 20 µg/mL, together with: 4-nitrophenyl α-D-glucopyranoside).
With `CC(=O)CC(c1ccccc1)c1c(O)c2ccccc2oc1=O` (centres unmarked) the inhibition was 11% (Luciferin 4-monooxygenase; luciferase luminescence, inhibitor; cell-free; 50 µM, counter-screen).
The inhibition of `Cc1noc(NS(=O)(=O)c2ccc(N=NN(O)c3ccccc3)cc2)c1C` is reported as 27.5 ± 0.097% (α-glucosidase, rat intestine; enzyme activity; 120 µg/mL, together with: 4-nitrophenyl α-D-glucopyranoside).
With `Cc1nn(-c2nc3c(F)cc(F)cc3s2)c(O)c1C(c1ccccc1C(=O)O)c1c(C)nn(-c2nc3c(F)cc(F)cc3s2)c1O` the inhibition was 102% (Cyclic GMP-AMP synthase, catalytic domain; with DNA (CGAS, Homo sapiens, UniProt Q8N884); cGAS phase separation, inhibitor; 20 µM).
For `CCCCOC(=O)c1ccc(O)cc1`, the inhibition was 70% (Palmitoyl-protein thioesterase 1; Spectrum Collection screen; concentration not given, together with: substrate 20 µM).
With `COc1ccc2c(c1)C(=O)N(CCN1CCN(c3ccccc3OC)CC1)C2` the inhibition was -1.5% (HTR1E; radioligand binding; concentration not given, together with: [3H]5-HT).
The inhibition of `C#C[C@]1(OC(C)=O)CC[C@H]2[C@@H]3CCC4=C[C@@H](OC(C)=O)CC[C@@H]4[C@H]3CC[C@@]21C` is reported as 60.3% (Palmitoyl-protein thioesterase 1; Spectrum Collection screen; concentration not given, together with: substrate 20 µM).
With `Cc1ccnc(C)c1OC[C@H]1CN(CCN2CCc3ccccc32)CCO1` the inhibition was -10% (HTR1E; radioligand binding; concentration not given, together with: [3H]5-HT).
`CN(C(=O)n1cnc(-c2ccc[n+]([O-])c2)c1)C1CCCCC1` has an inhibition of 5.46% (Adra1a (Rattus norvegicus, UniProt P43140); 10 µM).
`CCN(O)N=Nc1ccc(S(=O)(=O)Nc2onc(C)c2C)cc1` gave an inhibition of 26.2 ± 0.09% (α-glucosidase, rat intestine; enzyme activity; 120 µg/mL, together with: 4-nitrophenyl α-D-glucopyranoside).
For `CC(C)S[C@@H]1O[C@H](CO)[C@H](O)[C@H](O)[C@H]1O`, the inhibition was 23.7 ± 5.3% (Adhesin FmlH, lectin domain (Escherichia coli, UniProt Q1RBS0); binding to desialylated mucin, ELISA competition; UPEC UTI89; 100 µM).
`O[C@@H]1CN(CCCc2ccccc2)CC[C@H]1N1CCCCCC1` gave an inhibition of 2.64% (Luciferin 4-monooxygenase; luciferase luminescence, inhibitor; cell-free; 50 µM, counter-screen).
`CN1CCN(c2cc(-c3ccncc3)c(-c3ccc4ccccc4c3)nn2)CC1` gave an inhibition of -9.1% (BRS3 (Homo sapiens, UniProt P32247); antagonist, FLIPR; 10 µM).
The inhibition of `O=C(NO)c1ccc(CN2CCCCc3ccccc32)c(F)c1` is reported as 22.6% (DRD1; radioligand binding, radioligand displacement; 10 µM).
